Measured values gathered from unrelated publications.
A part holds a random share of what one study measured.

Block 1 — technique: RNA Bind-n-Seq; form: RNA; sample: in vitro; concentration: 200 nM; notes: whole 134-nt RNA, ends assumed; added: 150 mM KCl; reference: input library; direction: higher = stronger binding; quantity: log2 enrichment
Target: Ras GTPase-activating protein-binding protein 1, full length (G3BP1, Homo sapiens, UniProt Q13283)
Chain of UniProt Q13283 (whole entry, looked up): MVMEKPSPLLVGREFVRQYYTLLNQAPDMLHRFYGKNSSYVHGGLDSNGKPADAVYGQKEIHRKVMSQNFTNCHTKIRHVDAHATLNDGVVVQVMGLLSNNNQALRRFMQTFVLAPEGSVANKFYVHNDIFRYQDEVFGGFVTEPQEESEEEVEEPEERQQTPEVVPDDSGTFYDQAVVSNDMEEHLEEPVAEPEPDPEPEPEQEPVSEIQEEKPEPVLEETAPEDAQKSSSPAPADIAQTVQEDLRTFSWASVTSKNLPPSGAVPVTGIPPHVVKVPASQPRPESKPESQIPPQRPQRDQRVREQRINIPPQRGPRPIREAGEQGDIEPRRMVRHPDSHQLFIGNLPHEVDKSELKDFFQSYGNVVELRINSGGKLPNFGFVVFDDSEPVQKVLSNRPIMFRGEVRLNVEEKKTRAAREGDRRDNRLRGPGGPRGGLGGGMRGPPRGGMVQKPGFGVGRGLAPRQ
Constant ends, left off below: GGGAGUUCUACAGUCCGACGAUC … UGGAAUUCUCGGGUGUCAAGG
UGGCCCUGGUGGCAUGCGGAGAGGAAGAGGUGGCCUCAUGGAUCGUGGUGGUCCCGGUGGAAUGUUCAGAGGUGGCCGUGGUGGAGACAG: 0.336
CUGUGCUACACAUCGUAUGUACCGAAUCGGGGCCCCCCCGGGGCCCCCCCGGCCCCCCCGGGAAAGUAUUAUGUUACGCCGUUCGGAUCU: -1.12
UCAAGUCCUGUGCUACACAUCGUAUGUACCGAAUCGGGGAGGGGAGGGGAGGGGAAAGUAUUAUGUUACGCCGUUCGGAUCUGCACUUCC: 1.55
GUCCUGUGCUACACAUCGUAUGUACCGAAUCGGGUUUUUGGGUUUUUGGGGUUUUUGGGAAAGUAUUAUGUUACGCCGUUCGGAUCUGCA: -0.347
CUCAAGUCCUGUGCUACACAUCGUAUGUACCGAAUCGGAAGGAAGGGGAAGGGAAAGUAUUAUGUUACGCCGUUCGGAUCUGCACUUCCA: -0.211
AAGGCACGUAAGUUUAAGCUUUUUUUUUUUUUAAGUUAAUGGGAAAAAUUUGAGACGCAAUACCAAUACUUAGGAUUUUGGUCUUGGUGU: -0.56
UCAAGUCCUGUGCUACACAUCGUAUGUACCGAAUCGGGUUGGGUUGGGGUUGGGGAAAGUAUUAUGUUACGCCGUUCGGAUCUGCACUUC: 1.22
GUCCUGUGCUACACAUCGUAUGUACCGAAUCGGUUUUUUGGGUUUUUUGGUUUUUUGGAAAGUAUUAUGUUACGCCGUUCGGAUCUGCAC: -1.08
CUGUGCUACACAUCGUAUGUACCGAAUCGGGCCCCCCCGGGCCCCCCCGGCCCCCCCGGGGAAAGUAUUAUGUUACGCCGUUCGGAUCUG: -0.809
AAGUCCUGUGCUACACAUCGUAUGUACCGAAUCGGAAAGGUUUUUGGAAAAAAAGGAAAGUAUUAUGUUACGCCGUUCGGAUCUGCACUU: -1.49
GUCCUGUGCUACACAUCGUAUGUACCGAAUCGGGUUUUUGGGGUUUUUGGUUUUUGGGGAAAGUAUUAUGUUACGCCGUUCGGAUCUGCA: -0.511
ACCAUGCAGGUGGGCAUCUUUGGGAAGUGAAACAAGGGGGGGAUAGGGAGGGGGGUAACACUUUGGGAACAGGUGGUCCCAGGUCGUUUC: 1.56
CACAGACAACACGCACCCACACAGACACAGAGGGAAGGGGUUGGGAUGGGGAAAGGGUGCACAGCAGGGCGGGGUAGGACCCCAGCCCCU: 1.77
UCCUGUGCUACACAUCGUAUGUACCGAAUCGGGUUUUUGGGUUUUUGGGGUUUUUGGGGAAAGUAUUAUGUUACGCCGUUCGGAUCUGCA: 0.117

Block 2 — technique: RNA Bind-n-Seq; form: RNA; sample: in vitro; concentration: not given; reference: input RNA pool; direction: higher = stronger binding; quantity: bound/input enrichment
Target: RING finger protein unkempt homolog, zinc fingers 1-6, GST-SBP tag (UNK, Homo sapiens, UniProt Q9C0B0, residues 30-357)
Chain of UniProt Q9C0B0 (30-357, looked up): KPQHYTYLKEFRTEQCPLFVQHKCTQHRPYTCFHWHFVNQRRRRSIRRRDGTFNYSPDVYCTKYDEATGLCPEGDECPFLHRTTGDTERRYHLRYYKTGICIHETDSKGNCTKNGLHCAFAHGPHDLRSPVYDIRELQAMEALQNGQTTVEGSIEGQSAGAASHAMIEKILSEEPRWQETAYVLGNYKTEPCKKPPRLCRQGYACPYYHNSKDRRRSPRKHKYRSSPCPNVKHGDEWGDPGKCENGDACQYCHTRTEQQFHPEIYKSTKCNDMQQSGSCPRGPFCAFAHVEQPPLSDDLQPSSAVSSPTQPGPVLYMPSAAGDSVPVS
Notes: RNA with constant flanks, human and mouse sites, ends assumed
Constant ends, left off below: GGGAGUUCUACAGUCCGACGAUC … CAACAGAGGAUUGAGCAUCA
CUGUGGAACACCAUGGUCAUUGGAGGCUAUGCUGACGGAGAAAGCUUCCUCGGUUAUGUGGACAUGCUUGGUGUAGCUUAUGAAGCCCCUUCACUGGCCACUGGUUAUGGUGCAUACUUG: 0.129 ratio
CGCCCAGUGAAGGCAUCAAGGGAAGAUAGUGGUUUAUUUAGUCCUAUUCGAUCCUCUGCUUUUAGUCCUCUUGGAGGCUGUACUCCAGCUGAAUGUUUUUGCCAAACAGAUAUUGGUGGA: 1.73 ratio
GAUAUGAAGCACUGGCCCUUCAUGGUGGUGAAUGAUGCAGGCAGGCCCAAGGUCCAAGUGGAAUACAAAGGGGAGACAAAAAGUUUCUACCCAGAGGAAGUGUCCUCCAUGGUUCUGACA: 0.193 ratio
UCUCUGAUGCAAUGUGCAGGAGAAAGUAUCUCUCUGUUUAAAAAUAAAACAAAUGAGGAAUCAAGAAUUGGUUCAUUGAGAAAUGUGAUGCAUCUGUGUACAAGUUGCUUGUGUAUACAU: 0.221 ratio
UCAGGGGGCACACUGAGUGGUGGUAUUCUCUCCAGCGGCAAGGGAAAGUACAGCCGGUUAGAAGUUCAAGCUGAUGUCCAAAAGGAAAUUUUCCCCAAAGACACAGCCAGUCUUGGUGCA: 0.441 ratio
CAAUCAGGUUUUUACUACAAAACCAGAAUACCAAAGUUUGGGAGAGAUUUCUCUUACCACUAUCCAUCCUGUGACUUGUACUUUGUUGGUGCAAGUUCUGAAGUUUAUAGGUUAAACUUA: 0.178 ratio
ACAGAGCCGAGUAGCAAUAACAGUGAUGAUUGUCCAGGCAAGAGUGAAGACGACGAACACUUAGACCAAAUUCAAAGUAAAGACUCCUGUGAUGAGGGAAAUAAAGUGAACAGUAAUGUC: 0.552 ratio
GGUGUAGAAUUGGGUUCAGUUUGGCAAAGACUUGGUGCAGAUGUGACAGCAGUUGAAUUUUUAGGUCAUGUAGGUGGAGUUGGAAUUGAUAUGGAGAUAUCUAAAAACUUUCAACGCAUC: 0.86 ratio
GAAUUCUCACUCUCUGAUCUGAGCCAAGAACAUUUAACAAGCAACGAAGAAAUCUUGGGUUCCGCCGAAGAGAAGGACUGCGAGGAGGCUCGGGGGAUGGAAACGCGGGCGAGUCCGCGG: 0.159 ratio
CAGAAGCUGUUGAAGUCUUGUUGAAUUAUGCCUACACUGCUCAGUUGAAAGCAGAUAAGGAAUUGGUAAAAGAUGUUUAUUCUGCAGCAAAAAAGCUGAAGAUGGAUCGAGUAAAGCAGG: 0.136 ratio
UUGAUCCUAGAAAGAAAAAAUAAUUUUUCAUUUUAGAUCUUGAUUGAAUUUAAGAUGUAUUUAUAUGCCUACAAAAGGUCUGUCUUGUAACUGUUGUAUAAAAUAAACCUAAUCUAUGGU: 0.214 ratio

Block 3 — technique: protein binding microarray; form: double-stranded DNA, one strand shown; sample: in vitro; concentration: not given; reference: not given; direction: higher = stronger binding; quantity: E-score
Target: Histone acetyltransferase KAT6A, both winged helices, GST fusion (KAT6A, Homo sapiens, UniProt Q92794, residues 1-181)
Notes: 8-mer, flanks averaged, mean of 2 arrays, mostly near background
Construct (chain): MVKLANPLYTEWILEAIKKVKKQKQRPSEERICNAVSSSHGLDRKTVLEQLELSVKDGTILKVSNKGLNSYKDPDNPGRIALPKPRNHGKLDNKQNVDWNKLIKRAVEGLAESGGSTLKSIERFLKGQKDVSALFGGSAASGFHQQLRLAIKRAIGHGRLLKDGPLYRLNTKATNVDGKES
ATCACACG: 0.19
CTCCATCC: -0.18
CATCATAA: -0.0861
AGGATCTC: -0.179
TAAGAAAA: -0.0956
CAGGAACA: -0.218
ACATGAGT: 0.0111
CGAGGTGC: 0.0205
CACATTTA: -0.26
GCCGACTA: 0.147
CGTTATCC: -0.0638
ACGTTGGC: -0.0348
ATTCTTAC: -0.0114
AAGTACCG: 0.208
GCGGCCAC: 0.209
GCCTCTAC: -0.113
CGATACAC: -0.0109
CCAAAACA: -0.0771
CAGCCGGA: 0.131
GAGCAATA: -0.261

Block 4 — technique: protein-binding microarray; form: double-stranded DNA, one strand shown; sample: in vitro; concentration: 250 nM; notes: 60-bp whole probe; added: salmon DNA 0.4 mg/ml; reference: random background probes; direction: higher = stronger binding; quantity: log fluorescence; constant ends, left off below: GCCTAGCAC … GTCTTGATTCGCTTGACGCTGCTG
Target: Interferon regulatory factor 7, full length, phosphomimetic (IRF7, Homo sapiens, UniProt Q92985, residues 1-503, S101K/S471D/S472D/S475D/S476D/S477D/S483D/S484D/S487D)
Construct (chain): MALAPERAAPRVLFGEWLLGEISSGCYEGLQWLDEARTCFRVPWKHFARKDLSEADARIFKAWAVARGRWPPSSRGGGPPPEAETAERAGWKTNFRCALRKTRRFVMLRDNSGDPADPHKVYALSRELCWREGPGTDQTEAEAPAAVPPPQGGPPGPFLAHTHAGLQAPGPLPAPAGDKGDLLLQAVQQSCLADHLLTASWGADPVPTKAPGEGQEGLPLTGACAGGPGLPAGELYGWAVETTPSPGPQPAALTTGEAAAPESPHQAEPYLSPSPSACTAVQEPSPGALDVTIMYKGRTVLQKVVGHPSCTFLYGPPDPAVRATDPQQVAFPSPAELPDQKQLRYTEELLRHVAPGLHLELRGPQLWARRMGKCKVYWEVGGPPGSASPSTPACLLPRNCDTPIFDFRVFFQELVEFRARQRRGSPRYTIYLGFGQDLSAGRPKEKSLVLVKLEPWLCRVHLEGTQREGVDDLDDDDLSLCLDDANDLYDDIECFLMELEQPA
GACGTTTTTCATTTTTTTTTGTGCTAG: 0.947 z-score
TTTGATATCAGACTGGATTAGTGCTAG: -0.075 z-score
TTAGGACTGCTTTTCCTGTAGTGCTAG: 0.976 z-score
TCATCTCTAATTTTGAGACTGTGCTAG: 0.457 z-score
TTAGGGCTGGACTTTCGGTTAGTGCTA: -0.332 z-score
AGAAATTTCTTTCTAATTCAGTGCTAG: 0.51 z-score
TCAGATCTCCGAGATGCCACTGTGCTA: -0.358 z-score
TCATCTCCCAGACTGGAGTGGTGCTAG: 0.224 z-score
TTAGGTCTCGGTATGGGTTAGTGCTAG: 1.79 z-score
TTAGGACTGCTACTTCTTTAGTGCTAG: -0.109 z-score
GACGAAATGGGGACTGGAGACGTGCTA: -0.397 z-score
TTAGGTCTCCTTACCCTTTAGTGCTAG: 0.0387 z-score
GACGGACTGGACTATGGGGACGTGCTA: -0.301 z-score
GTCCTCCTCTCTCTTTCCACGTGCTAG: 1.94 z-score
TCATATGTCCTGTCTACAACTGTGCTA: 0.547 z-score
GACGAACTGGGGTCTGGAGACGTGCTA: -0.655 z-score
GACGGTATCCGGTTTCGGGACGTGCTA: 3.16 z-score
TCAAATCTGTGTTATTAAACTGTGCTA: 0.481 z-score
TCGTGGATTGCGACCCCTAGGTGCTAG: -0.507 z-score
GACGTTTTCAGTATCGAGACGTGCTAG: 1.41 z-score
TTAGATCACAGTCTCGATTAGTGCTAG: 1.33 z-score
TTAGGTACCGACTTTCGGTTAGTGCTA: 2.37 z-score

Excerpt of the above (block 4):
GACGTTTTCAGTATCGAGACGTGCTAG: 1.41 z-score
TTAGGGCTGGACTTTCGGTTAGTGCTA: -0.332 z-score
TTAGGTCTCCTTACCCTTTAGTGCTAG: 0.0387 z-score
TCATCTCCCAGACTGGAGTGGTGCTAG: 0.224 z-score
